Measured values from different studies.
Each line is one published result; not all experiments were run side by side. Numbers after ± are the reported error.
Sequence of UniProt Q9UNQ0 (whole entry, looked up): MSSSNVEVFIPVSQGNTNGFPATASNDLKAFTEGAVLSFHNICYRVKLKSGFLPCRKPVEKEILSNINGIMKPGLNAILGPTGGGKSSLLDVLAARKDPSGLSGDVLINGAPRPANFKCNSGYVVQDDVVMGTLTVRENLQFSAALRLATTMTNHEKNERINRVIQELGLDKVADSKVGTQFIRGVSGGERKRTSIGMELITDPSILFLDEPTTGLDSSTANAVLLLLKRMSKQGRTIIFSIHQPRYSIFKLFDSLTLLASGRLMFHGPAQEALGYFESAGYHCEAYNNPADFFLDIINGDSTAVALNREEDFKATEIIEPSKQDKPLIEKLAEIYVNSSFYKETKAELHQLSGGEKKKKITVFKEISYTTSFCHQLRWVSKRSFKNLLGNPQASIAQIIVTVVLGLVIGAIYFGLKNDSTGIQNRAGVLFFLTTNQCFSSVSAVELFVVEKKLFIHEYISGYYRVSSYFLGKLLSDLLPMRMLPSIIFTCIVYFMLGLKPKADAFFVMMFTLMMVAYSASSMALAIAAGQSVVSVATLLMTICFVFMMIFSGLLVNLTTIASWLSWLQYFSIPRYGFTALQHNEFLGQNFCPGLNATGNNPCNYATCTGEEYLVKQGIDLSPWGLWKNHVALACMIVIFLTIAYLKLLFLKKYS

`NS(=O)(=O)c1ccc(NC(=O)NN[C@@H]2O[C@H](CO)[C@@H](O)[C@H](O)[C@H]2O)cc1` has a hemolysis of 0% (rabbit erythrocytes; 32 µg/mL, 3 h; relative to: complete lysis).
With `Fc1ccc2c(c1)c1nc3ccc(Br)cc3c-1cn2Cc1cn(Cc2ccc(C(F)(F)F)cc2)nn1` the selectivity index was 6.7 (Giardia duodenalis; relative to: Caco-2 CC50 over Giardia IC50).
With `[64Cu+2].c1cnc(CNCc2ccc(CN3CCCN4CCNCCCN(CC4)CC3)cc2)nc1` the tissue uptake was 3.82 ± 1.99 %ID/g (CXCR4; NOD/SCID mouse, U87 xenografts, U87-stb-CXCR4 tumour; 90 min, added: AMD3465 25 mg/kg sc).
`Fc1ccc2c(c1)c1nc3ccc(Br)cc3c-1cn2Cc1cn(Cc2cccc(Cl)c2)nn1` gave a selectivity index of 3.1 (Giardia duodenalis; relative to: Caco-2 CC50 over Giardia IC50).
For `CC(C)CC(NC(=O)C1OC(OC2C(OC3CCC4(C)C(CCC5(C)C4C(=O)C=C4C6CC(C)(C(=O)NC(CC(C)C)C(=O)O)CCC6(C)CCC45C)C3(C)C)OC(C(=O)NC(CC(C)C)C(=O)O)C(O)C2O)C(O)C(O)C1O)C(=O)O` (stereo not drawn), the therapeutic index was 200 (Epstein-Barr virus; superinfected Raji cells; relative to: CC50 over EC50).
`Fc1ccc2c(c1)c1nc3ccc(Br)cc3c-1cn2Cc1cn(-c2ccccc2)nn1` gave a selectivity index of 2.5 (Giardia duodenalis; relative to: Caco-2 CC50 over Giardia IC50).
Under “total distribution volume”, `[11CH3]Oc1ccc(C(=O)Nc2c(-c3cccs3)nc3ccccn23)cc1` is recorded as 5.6 mL/cm³ (δ-containing GABAA receptor; pig (female Landrace × Yorkshire × Duroc), cortex; intravenous bolus, dose not given; relative to: baseline).
For `O=C(O)CCC(NP(=O)(O)OCCC[C@@H](NC(=O)CC[C@H](NC(=O)CCCCCNC(=O)c1ccc([18F])cc1)C(=O)O)C(=O)O)C(=O)O` (stereo partly drawn), the tracer uptake was 0.819 %ID/g (CWR22Rv1 tumour model; host not given, spleen; 1 h, tumour-bearing).
`CC(=O)N[C@H](C(=O)N[C@H](C(=O)N[C@@H](CCCNC(=N)N)C(=O)N1Cc2ccccc2C[C@H]1C(=O)N[C@@H](Cc1ccccc1)C(N)=O)C1CCCCC1)C(C)C` gave a cytokine level of 549 ± 459 pg/mL (human PBMC; Bio-Plex multiplex, item: RANTES; 250 µg/mL, 24 h).
`Fc1ccc2c(c1)c1nc3ccc(Br)cc3c-1cn2Cc1cn(Cc2ccccc2)nn1` gave a selectivity index of 11.7 (Giardia duodenalis; relative to: Caco-2 CC50 over Giardia IC50).
`Cn1c(=O)oc2ccc(-c3ccc(CC(C#N)NC(=O)C4CNCCCO4)c(F)c3)cc21` (stereo not drawn): “ALT increased incidence” 0% (human; oral, 20 mg once daily, treatment-related AE, multiple ascending dose).
For `[64Cu+2].c1ccc(CNCc2ccc(CN3CCCN4CCNCCCN(CC4)CC3)cc2)nc1`, the tumour-to-tissue ratio was 2.81 ± 1.05 (CXCR4; NOD/SCID mouse, U87 and U87-stb-CXCR4 xenografts; iv, 90 min, no blocking dose; relative to: U87 tumour over blood).
`CCCC[C@H](NC(=O)CNC(=O)CNC(=O)CN1CCN(CC(=O)O)CCN(CC(=O)O)CCN(CC(=O)O)CC1)C(=O)N[C@H]1CC(=O)NCCCC[C@@H](C(N)=O)NC(=O)[C@H](Cc2c[nH]c3ccccc23)NC(=O)[C@H](CCCNC(=N)N)NC(=O)[C@@H](Cc2ccccc2)NC(=O)[C@H](Cc2c[nH]cn2)NC1=O` [copper-64 labelled] gave an uptake ratio of 262 (female C57 mouse, B16/F1 melanoma; intravenous, 0.037 MBq, 4 h; relative to: tumour over muscle).
`Fc1ccc2c(c1)c1nc3ccc(Br)cc3c-1cn2Cc1cn(Cc2ccc(Br)cc2)nn1` has a selectivity index of 5.3 (Giardia duodenalis; relative to: Caco-2 CC50 over Giardia IC50).
`O=C(O)C1OC(Oc2ccc3c(=O)cc(-c4ccccc4)oc3c2)C(O)C(O)C1O` (stereo not drawn) has a Km of 9 µM (Broad substrate specificity ATP-binding cassette transporter ABCG2 (ABCG2, Homo sapiens, UniProt Q9UNQ0); efflux of glucuronide, substrate; HeLa-UGT1A9).

Repeated from above:
With `[64Cu+2].c1cnc(CNCc2ccc(CN3CCCN4CCNCCCN(CC4)CC3)cc2)nc1` the tissue uptake was 3.82 ± 1.99 %ID/g (CXCR4; NOD/SCID mouse, U87 xenografts, U87-stb-CXCR4 tumour; 90 min, added: AMD3465 25 mg/kg sc).
`Fc1ccc2c(c1)c1nc3ccc(Br)cc3c-1cn2Cc1cn(Cc2cccc(Cl)c2)nn1` gave a selectivity index of 3.1 (Giardia duodenalis; relative to: Caco-2 CC50 over Giardia IC50).
